Results gathered from unrelated publications.
Each line is one published result; not all experiments were run side by side. “And” joins repeats or separate records; there may be more than shown. ± gives the spread as reported.
WDR55: WD repeat-containing protein 55 (WDR55, Homo sapiens, UniProt Q9H6Y2)
PIKFYVE: 1-phosphatidylinositol 3-phosphate 5-kinase (PIKFYVE, Homo sapiens, UniProt Q9Y2I7)
Chain of UniProt Q9Y2I7 (whole entry, looked up): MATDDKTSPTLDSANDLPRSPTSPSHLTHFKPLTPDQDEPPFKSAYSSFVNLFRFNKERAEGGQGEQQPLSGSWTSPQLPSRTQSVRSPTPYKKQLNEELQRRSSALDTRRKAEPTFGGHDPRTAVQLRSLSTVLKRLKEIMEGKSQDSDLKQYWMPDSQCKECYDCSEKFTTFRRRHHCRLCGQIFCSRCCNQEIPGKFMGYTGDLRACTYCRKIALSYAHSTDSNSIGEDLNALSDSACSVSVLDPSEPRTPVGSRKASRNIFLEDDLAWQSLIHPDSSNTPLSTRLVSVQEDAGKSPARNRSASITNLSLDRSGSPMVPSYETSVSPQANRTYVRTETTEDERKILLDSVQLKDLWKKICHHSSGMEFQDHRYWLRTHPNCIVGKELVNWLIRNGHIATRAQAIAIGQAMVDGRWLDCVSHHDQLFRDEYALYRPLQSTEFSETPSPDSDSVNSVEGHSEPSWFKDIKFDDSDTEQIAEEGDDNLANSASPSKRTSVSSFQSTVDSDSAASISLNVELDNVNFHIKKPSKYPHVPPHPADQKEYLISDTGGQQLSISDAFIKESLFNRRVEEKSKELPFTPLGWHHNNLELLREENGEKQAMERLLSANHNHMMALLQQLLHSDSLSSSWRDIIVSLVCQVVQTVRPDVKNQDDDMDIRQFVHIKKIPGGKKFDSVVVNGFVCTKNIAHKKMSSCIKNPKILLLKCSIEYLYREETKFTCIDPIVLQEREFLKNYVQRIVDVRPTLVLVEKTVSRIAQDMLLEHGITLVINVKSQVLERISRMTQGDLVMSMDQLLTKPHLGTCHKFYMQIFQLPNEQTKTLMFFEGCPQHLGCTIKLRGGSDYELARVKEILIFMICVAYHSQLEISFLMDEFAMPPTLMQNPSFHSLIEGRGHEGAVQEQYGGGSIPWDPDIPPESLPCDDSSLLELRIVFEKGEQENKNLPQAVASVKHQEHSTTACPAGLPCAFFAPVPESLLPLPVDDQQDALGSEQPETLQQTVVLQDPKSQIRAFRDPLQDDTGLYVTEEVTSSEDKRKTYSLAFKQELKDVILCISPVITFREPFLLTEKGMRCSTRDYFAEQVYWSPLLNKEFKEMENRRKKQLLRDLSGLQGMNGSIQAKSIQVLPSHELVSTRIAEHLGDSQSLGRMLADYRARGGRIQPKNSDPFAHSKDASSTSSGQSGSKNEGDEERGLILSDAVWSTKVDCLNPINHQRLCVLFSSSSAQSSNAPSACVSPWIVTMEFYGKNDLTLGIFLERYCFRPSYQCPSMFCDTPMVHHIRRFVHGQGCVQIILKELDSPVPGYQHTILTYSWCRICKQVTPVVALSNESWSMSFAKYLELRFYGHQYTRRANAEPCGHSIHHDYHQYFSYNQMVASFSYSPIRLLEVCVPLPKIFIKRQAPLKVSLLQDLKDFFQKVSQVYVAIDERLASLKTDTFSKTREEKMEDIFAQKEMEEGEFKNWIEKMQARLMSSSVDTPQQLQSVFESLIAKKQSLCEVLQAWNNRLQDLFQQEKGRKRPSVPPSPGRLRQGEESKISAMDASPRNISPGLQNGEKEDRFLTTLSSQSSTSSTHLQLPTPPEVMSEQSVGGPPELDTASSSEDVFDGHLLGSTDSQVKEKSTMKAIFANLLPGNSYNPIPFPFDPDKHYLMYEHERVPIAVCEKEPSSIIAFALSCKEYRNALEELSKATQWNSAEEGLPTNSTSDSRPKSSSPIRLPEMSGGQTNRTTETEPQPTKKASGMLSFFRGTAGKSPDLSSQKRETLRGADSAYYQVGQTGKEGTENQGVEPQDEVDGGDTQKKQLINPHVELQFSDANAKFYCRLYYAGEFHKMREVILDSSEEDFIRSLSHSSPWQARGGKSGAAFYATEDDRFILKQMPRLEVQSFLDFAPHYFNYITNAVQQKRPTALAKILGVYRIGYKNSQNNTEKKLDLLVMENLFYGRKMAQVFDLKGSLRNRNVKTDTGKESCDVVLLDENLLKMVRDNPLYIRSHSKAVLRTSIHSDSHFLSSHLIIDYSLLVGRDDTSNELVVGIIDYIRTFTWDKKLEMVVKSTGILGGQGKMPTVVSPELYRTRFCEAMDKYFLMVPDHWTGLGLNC
Protein kinase C-like 1: Protein kinase C-like 1 (Candida albicans, UniProt P43057)
HTR7: 5-hydroxytryptamine receptor 7 (HTR7, Homo sapiens, UniProt P34969)
Chain of UniProt P34969 (whole entry, looked up): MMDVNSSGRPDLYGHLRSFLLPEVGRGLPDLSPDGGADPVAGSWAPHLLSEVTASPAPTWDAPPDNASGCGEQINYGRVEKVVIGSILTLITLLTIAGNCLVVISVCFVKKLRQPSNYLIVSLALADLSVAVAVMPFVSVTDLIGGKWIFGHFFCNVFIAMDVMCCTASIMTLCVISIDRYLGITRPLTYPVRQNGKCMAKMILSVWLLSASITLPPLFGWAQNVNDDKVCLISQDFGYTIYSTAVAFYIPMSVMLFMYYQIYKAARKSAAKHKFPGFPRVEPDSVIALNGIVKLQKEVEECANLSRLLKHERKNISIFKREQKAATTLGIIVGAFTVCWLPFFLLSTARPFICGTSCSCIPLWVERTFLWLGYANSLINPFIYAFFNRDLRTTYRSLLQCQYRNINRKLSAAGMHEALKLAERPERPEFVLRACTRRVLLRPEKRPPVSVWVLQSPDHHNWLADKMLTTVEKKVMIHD
HTR2C: 5-hydroxytryptamine receptor 2C (HTR2C, Homo sapiens, UniProt P28335)
Chain of UniProt P22314 (whole entry, looked up): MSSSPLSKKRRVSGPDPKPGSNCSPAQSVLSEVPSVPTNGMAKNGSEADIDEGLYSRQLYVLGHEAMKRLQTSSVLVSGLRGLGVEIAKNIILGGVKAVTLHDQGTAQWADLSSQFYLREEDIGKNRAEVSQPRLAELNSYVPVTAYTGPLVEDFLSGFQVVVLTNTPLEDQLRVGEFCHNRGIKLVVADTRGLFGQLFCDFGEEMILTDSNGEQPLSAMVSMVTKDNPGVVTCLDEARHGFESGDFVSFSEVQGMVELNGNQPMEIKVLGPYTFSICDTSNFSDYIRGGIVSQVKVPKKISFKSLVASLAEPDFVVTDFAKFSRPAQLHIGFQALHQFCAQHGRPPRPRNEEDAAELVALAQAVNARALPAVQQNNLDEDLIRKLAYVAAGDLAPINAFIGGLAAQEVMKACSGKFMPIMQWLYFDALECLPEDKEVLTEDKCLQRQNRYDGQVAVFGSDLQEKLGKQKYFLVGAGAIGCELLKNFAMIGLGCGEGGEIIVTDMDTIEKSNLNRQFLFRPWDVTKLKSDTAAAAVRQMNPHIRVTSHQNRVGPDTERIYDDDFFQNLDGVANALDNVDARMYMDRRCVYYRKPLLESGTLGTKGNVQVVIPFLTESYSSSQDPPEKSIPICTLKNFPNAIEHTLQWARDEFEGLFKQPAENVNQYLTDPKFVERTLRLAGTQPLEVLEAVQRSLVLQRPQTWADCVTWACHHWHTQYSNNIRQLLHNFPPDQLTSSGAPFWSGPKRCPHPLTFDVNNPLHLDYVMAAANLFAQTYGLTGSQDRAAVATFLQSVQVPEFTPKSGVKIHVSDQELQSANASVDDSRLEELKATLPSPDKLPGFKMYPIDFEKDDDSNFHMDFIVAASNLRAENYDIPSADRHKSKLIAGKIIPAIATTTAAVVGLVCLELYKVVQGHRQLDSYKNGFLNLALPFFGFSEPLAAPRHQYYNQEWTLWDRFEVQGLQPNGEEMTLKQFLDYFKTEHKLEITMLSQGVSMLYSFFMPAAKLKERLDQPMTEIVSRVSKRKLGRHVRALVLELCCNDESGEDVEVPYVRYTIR
Chain of UniProt Q695T7 (whole entry, looked up): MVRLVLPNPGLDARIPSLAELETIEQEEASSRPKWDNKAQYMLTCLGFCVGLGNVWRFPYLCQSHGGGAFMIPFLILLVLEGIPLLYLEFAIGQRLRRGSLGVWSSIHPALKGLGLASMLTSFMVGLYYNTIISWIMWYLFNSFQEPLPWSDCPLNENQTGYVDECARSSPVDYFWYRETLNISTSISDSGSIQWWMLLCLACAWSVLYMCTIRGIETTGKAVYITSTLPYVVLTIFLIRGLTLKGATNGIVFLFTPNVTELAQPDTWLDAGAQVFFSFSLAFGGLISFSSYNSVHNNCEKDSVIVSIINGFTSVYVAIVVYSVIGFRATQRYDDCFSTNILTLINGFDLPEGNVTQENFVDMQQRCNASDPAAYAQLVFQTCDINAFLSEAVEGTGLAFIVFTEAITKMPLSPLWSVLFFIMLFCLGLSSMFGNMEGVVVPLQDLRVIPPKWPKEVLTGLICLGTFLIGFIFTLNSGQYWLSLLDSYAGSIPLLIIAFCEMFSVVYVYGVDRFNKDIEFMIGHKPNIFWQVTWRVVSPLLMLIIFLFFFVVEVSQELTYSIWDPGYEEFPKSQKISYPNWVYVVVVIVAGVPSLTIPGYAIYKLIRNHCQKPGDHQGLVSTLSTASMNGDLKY
Chain of UniProt O76090 (whole entry, unmodified, looked up): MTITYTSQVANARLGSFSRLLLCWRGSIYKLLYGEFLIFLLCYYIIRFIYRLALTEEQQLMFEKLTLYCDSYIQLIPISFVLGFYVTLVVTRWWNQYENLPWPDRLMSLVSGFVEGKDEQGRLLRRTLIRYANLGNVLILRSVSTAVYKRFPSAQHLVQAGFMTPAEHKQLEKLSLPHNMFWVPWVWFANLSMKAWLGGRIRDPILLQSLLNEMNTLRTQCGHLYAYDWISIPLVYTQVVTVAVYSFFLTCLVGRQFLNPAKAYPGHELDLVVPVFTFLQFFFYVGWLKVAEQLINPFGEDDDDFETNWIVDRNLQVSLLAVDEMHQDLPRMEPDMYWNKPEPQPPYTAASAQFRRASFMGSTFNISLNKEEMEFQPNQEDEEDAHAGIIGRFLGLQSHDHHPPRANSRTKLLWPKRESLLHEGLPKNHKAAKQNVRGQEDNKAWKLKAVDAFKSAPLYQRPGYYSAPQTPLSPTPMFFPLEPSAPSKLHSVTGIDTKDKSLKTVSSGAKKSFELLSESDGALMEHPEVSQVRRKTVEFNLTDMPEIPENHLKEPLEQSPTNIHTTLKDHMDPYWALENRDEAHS
Chain of UniProt P14174 (whole entry, looked up): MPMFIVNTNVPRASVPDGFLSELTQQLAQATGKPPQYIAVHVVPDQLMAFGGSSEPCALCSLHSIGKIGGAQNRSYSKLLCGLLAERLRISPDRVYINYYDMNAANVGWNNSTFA

SMILES	target	test	system	setting	how to read	quantity	result
CCS(=O)(=O)N1CC(CC#N)(n2cc(-c3ncnc4[nH]ccc34)cn2)C1	ORM1 (Homo sapiens, UniProt P02763)			added: Co^2+		change in binding constant	-30.1%
Cc1cc(Cl)cc(C)c1OCC(=O)NC(C)C	SLC6A19 (Homo sapiens, UniProt Q695T7)	membrane potential, FLIPR membrane potential	CHO-BC cells	concentration not given, first screen	relative to: uninhibited control	normalised transport activity	0.897 and 0.932 and 0.925 and 0.889 and 0.951
Cc1ccc(N2CC(C(N)=O)CC2=O)cc1 (stereo not shown)	WDR55	binding, affinity selection mass spectrometry			relative to: other proteins in batch	fold enrichment	0.991
C1=C/COCc2cc(ccc2OCCN2CCCC2)Nc2nccc(n2)-c2cccc(c2)COC/1	PIKFYVE			concentration not given		percent of control	17%
COc1ccc(-c2cc3ccc(O)cc3oc2=O)cc1	MIF (Homo sapiens, UniProt P14174)	inhibitor, ELISA		up to 50 µM		binding inhibition	no inhibition
c1ccc(-c2n[nH]cc2-c2ccnc3ccccc23)nc1	Protein kinase C-like 1	kinase binding, competitor, MIB/MS competition, refers to: PKC1	Candida albicans cell lysate	100 nM	relative to: DMSO	log2 fold change	1.35
Nc1ccc2cc3ccc(N)cc3nc2c1	Chymotrypsinogen A, activated (alpha-chymotrypsin) (Bos taurus, UniProt P00766)	isothermal titration calorimetry		pH 7.4, 25 °C		binding Gibbs energy	-24.9 ± 0.1 kJ/mol
Nc1ncnc2c1ncn2[C@@H]1O[C@H](COP(=O)(O)CP(=O)(O)OP(=O)(O)O)[C@@H](O)[C@H]1O	P2X purinoceptor 1 (P2RX1, Homo sapiens, UniProt P51575, K215A)	calcium influx		10 µM	relative to: ionomycin response	calcium influx	100% and 90.1%
CCCCCCCC/C=C\CCCCCCCC(=O)NCCc1ccc(O)c(O)c1	Trpv1 (Mus musculus, UniProt Q704Y3, S513A)	ion current, agonist, whole-cell patch clamp				Hill coefficient	1.76 ± 0.6
Oc1ccccc1-c1n[nH]cc1-c1ccnc2ccccc12	Protein kinase C-like 1	kinase binding, MIB/MS competition	Candida albicans lysate	1 µM	relative to: DMSO, negative = stronger binding	log2 fold change	0.04
NCCCS(=O)(=O)O	SLC6A6 (Homo sapiens, UniProt P31641, G62A)	binding, microscale thermophoresis		1.95 µM, room temperature, added: 50 nM labelled protein	higher = more binding	normalised MST signal	-0.0122
COc1cccc(OC[C@@H]2CN(CC(=O)N3CCc4ccccc43)CCO2)c1	HTR7	radioligand binding		concentration not given, added: [3H]LSD		inhibition	13.5%
Nc1nc2c(ncn2[C@@H]2O[C@H](COP(=O)(O)O)[C@@H](O)[C@H]2O)c(=O)[nH]1	GUK1 (Homo sapiens, UniProt Q16774, R44A)	binding, ITC		added: GMP		-TΔS	2.86 kcal/mol
O=C1N[C@H](c2cncc(C#Cc3ccccc3)c2)[C@@H](c2ccccc2Cl)O1	Metabotropic glutamate receptor 5 (Macaca mulatta, UniProt A0ACM8QRY8)	PET	rhesus monkey	intravenous, 0.03 mg/kg		receptor occupancy	27%
CC1(C)CC2(C)OC(=O)NC2(C)c2ccccc21 (stereo not shown)	Baculoviral IAP repeat-containing protein 3, BIR1 domain (BIRC3, Homo sapiens, UniProt Q13489)	binding, affinity selection mass spectrometry			relative to: other proteins in batch	log fold enrichment	-0.0374
CO[C@H]1O[C@H](COS(=O)(=O)O)[C@@H](O[C@@H]2O[C@@H](C(=O)O)[C@@H](O[C@H]3O[C@H](COS(=O)(=O)O)[C@@H](O[C@@H]4O[C@H](C(=O)O)[C@@H](O[C@H]5O[C@H](COS(=O)(=O)O)[C@@H](O)[C@H](O)[C@H]5NS(=O)(=O)O)[C@H](O)[C@H]4O)[C@H](OS(=O)(=O)O)[C@H]3NS(=O)(=O)O)[C@H](O)[C@H]2OS(=O)(=O)O)[C@H](O)[C@H]1NS(=O)(=O)O	Beta-2-glycoprotein 1, domain V (APOH, Homo sapiens, UniProt P02749, V266L)	isothermal titration calorimetry		298 K, added: 100 mM NaCl		entropic contribution TΔS	-474 cal/mol
Cc1ncccc1OC[C@@H]1CN(CCN2CCc3ccccc32)CCO1	HTR7	radioligand binding		concentration not given, added: [3H]LSD		inhibition	39.2%

SMILES	target	test	system	setting	how to read	quantity	result
CCCC[C@H](NC(C)=O)C(=O)N[C@@H](CO)C(=O)N[C@H](C(=O)N1CCC[C@H]1C(=O)N[C@@H](C)C(=O)N[C@@H](CCCNC(=N)N)C(=O)N[C@@H](CCCNC(=N)N)C(=O)N[C@@H](CCCNC(=N)N)C(=O)N[C@@H](CC(C)C)C(=O)N[C@@H](CCCC)C(=O)N[C@@H](CCCNC(=N)N)C(=O)N[C@@H](CC(=O)O)C(=O)N[C@@H](Cc1ccccc1)C(=O)N[C@@H](CCCCN)C(=O)N[C@@H](CCCNC(=N)N)C(=O)N[C@@H](CC(C)C)C(=O)N[C@@H](CCC(N)=O)C(N)=O)[C@@H](C)O	UBA1 (Homo sapiens, UniProt P22314)	HDX-MS		10 s, added: UBE1 at 1:1 molar ratio	relative to: undeuterated peptide	relative deuterium uptake	13.6 Da and 13.8 Da and 13 Da
Nc1ccc(C(=O)O)cc1	BEST1, with wild-type BEST1 (Homo sapiens, UniProt O76090, A10T)	whole-cell patch clamp	HEK293 co-expressing WT and A10T mutant	concentration not given, membrane potential -80 mV		current density	-25.2 pA/pF and -17.3 pA/pF and -11.6 pA/pF and -41.2 pA/pF and -7.47 pA/pF and -22.9 pA/pF
CC[C@@H](C)[C@@H](NC(=O)[C@@H](Cc1ccc(O)cc1)NC(=O)[C@H]1CCCN1C(=O)[C@@H](CCCNC(=N)N)NC(=O)[C@H](N)Cc1c[nH]cn1)C(=O)N[C@H](C)C(=O)N[C@H](Cc1c[nH]cn1)C(=O)N[C@H](CCCNC(=N)N)C(=O)N[C@@H](C(=O)N[C@H](Cc1ccc(O)cc1)C(=O)N[C@H](CO)C(=O)N[C@H](Cc1ccccc1)C(N)=O)C(C)C	Transferrin receptor protein 1 (Tfrc, Mus musculus, UniProt Q62351)	flow cytometry	B16	48 h, unit not given	relative to: 0 h	surface expression	0.532 and 0.526
N#Cc1ccc2[nH]cc(CCCCN3CCN(c4ccc5oc(C(N)=O)cc5c4)CC3)c2c1	SLC6A4 (Homo sapiens, UniProt P31645)	serotonin uptake, inhibitor	COS-7 expressing SLC6A4	30 min preincubation, added: [3H]5-HT		Hill coefficient	2.08 ± 0.4
CC1=CC(=O)c2ccccc2C1=O	FSP1, ancestral	substrate		co-substrate fixed		Km	6.33 ± 0.74 µM
C[C@H](O)c1cnc(NS(=O)(=O)c2ccc(C(F)(F)F)c(Cl)c2)nc1	17-beta-hydroxysteroid dehydrogenase 13 (Homo sapiens, UniProt Q7Z5P4)	substrate, NADH fluorescence				Vmax	0.21 nM NADH/s/nM enzyme
O=C(O)c1ccc(Nc2ncc3c(n2)-c2ccc(Cl)cc2C(c2c(F)cccc2F)=NC3)cc1	human Flt3(D835Y)	kinase activity		1 µM		remaining activity	81%
C=CC(=O)N1CCC(COCC(=O)N2CCN(c3nc(-c4cnc(N)nc4C(F)F)nc(N4CCOC[C@@H]4C)n3)CC2)CC1	TGFBR2 (Homo sapiens, UniProt P37173)	KINOMEscan		1 µM		remaining binding	100%
Cc1cc(Nc2cc(N3CCN(C)CC3)nc(Sc3ccc(NC(=O)C4CC4)cc3)n2)[nH]n1	Mapk1 (Mus musculus, UniProt P63085)	kinase activity, KinaseProfiler		0.03 µM, species mouse	relative to: control	remaining activity	103%
COc1cccc(OC[C@@H]2CN(CCN3CCc4ccccc43)CCO2)c1	HTR2C	radioligand binding		concentration not given, added: [3H]mesulergine		inhibition	78.1%
CC(=O)OCC[N+](C)(C)C	CHRNB4/CHRNA6 (Homo sapiens, UniProt P30926+Q15825, E185A)	two-electrode voltage clamp	Xenopus oocytes	α6β4 E155A mutant	relative to: wild type	current	decreased
COc1cc2c(cc1OC)C(=O)N(CCCCN1CCN(c3ccccc3OC)CC1)C2	HTR2C	radioligand binding		concentration not given, added: [3H]mesulergine		inhibition	91.3%
O=C(O)C[C@@H](O)C(=O)O	Uncharacterized protein (Pelagibacter ubique, UniProt Q4FKX4)	differential scanning fluorimetry	Candidatus Pelagibacter ubique	in-house screen		thermal shift	10.3 °C
Cc1nc(CSc2nc(SCc3ccc(C(C)C)cc3)nc(=O)[nH]2)cs1	TOP2A (Homo sapiens, UniProt P11388)	DNA relaxation		31.25 µM, replicate 1		relaxed DNA	99.9%
Cc1cccc(N2CC(C(=O)O)CC2=O)c1 (stereo not shown)	WDR55	binding, affinity selection mass spectrometry			relative to: other proteins in batch	fold enrichment	0.998
COc1cc(NC(=O)c2cscn2)ccc1/N=N/c1ccccc1Cl	GRM2 (Homo sapiens, UniProt Q14416)	positive allosteric modulator, IP accumulation	HEK293	30 µM, in the dark, added: low-dose orthosteric agonist		activation	-3.04%
C[C@@H](c1ccc(-n2cnc3c(N)ncnc32)cc1)N1CCc2nn(C)c(Cc3ccccc3)c2C1=O	PIKFYVE	KINOMEscan		0.1 µM	relative to: DMSO control	remaining binding	67%

For quick reference, copied from above:
SMILES	target	test	system	setting	how to read	quantity	result
CC1=CC(=O)c2ccccc2C1=O	FSP1, ancestral	substrate		co-substrate fixed		Km	6.33 ± 0.74 µM
COc1cccc(OC[C@@H]2CN(CC(=O)N3CCc4ccccc43)CCO2)c1	HTR7	radioligand binding		concentration not given, added: [3H]LSD		inhibition	13.5%
Nc1ccc(C(=O)O)cc1	BEST1, with wild-type BEST1 (Homo sapiens, UniProt O76090, A10T)	whole-cell patch clamp	HEK293 co-expressing WT and A10T mutant	concentration not given, membrane potential -80 mV		current density	-25.2 pA/pF and -17.3 pA/pF and -11.6 pA/pF and -41.2 pA/pF and -7.47 pA/pF and -22.9 pA/pF
Nc1nc2c(ncn2[C@@H]2O[C@H](COP(=O)(O)O)[C@@H](O)[C@H]2O)c(=O)[nH]1	GUK1 (Homo sapiens, UniProt Q16774, R44A)	binding, ITC		added: GMP		-TΔS	2.86 kcal/mol
CCCC[C@H](NC(C)=O)C(=O)N[C@@H](CO)C(=O)N[C@H](C(=O)N1CCC[C@H]1C(=O)N[C@@H](C)C(=O)N[C@@H](CCCNC(=N)N)C(=O)N[C@@H](CCCNC(=N)N)C(=O)N[C@@H](CCCNC(=N)N)C(=O)N[C@@H](CC(C)C)C(=O)N[C@@H](CCCC)C(=O)N[C@@H](CCCNC(=N)N)C(=O)N[C@@H](CC(=O)O)C(=O)N[C@@H](Cc1ccccc1)C(=O)N[C@@H](CCCCN)C(=O)N[C@@H](CCCNC(=N)N)C(=O)N[C@@H](CC(C)C)C(=O)N[C@@H](CCC(N)=O)C(N)=O)[C@@H](C)O	UBA1 (Homo sapiens, UniProt P22314)	HDX-MS		10 s, added: UBE1 at 1:1 molar ratio	relative to: undeuterated peptide	relative deuterium uptake	13.6 Da and 13.8 Da and 13 Da
